Results pooled from the literature.
Lines come from different studies, so protocols differ. ± marks the error that the study gave.

Cc1ccc(S(=O)(=O)Nn2c3c(cc(-c4nc5ccccc5s4)c2=O)CCCCCC3)cc1  maximum non-toxic concentration (FRhK-4; trypan blue; 72 h): 130 µg/mL
CC(C)=CCc1cc2c(cc1O)OCc1c-2oc2c(CC=C(C)C)c(O)ccc12  viability (3T3-L1; MTT; concentration not given): 94.4 ± 0.5%
Cc1[nH][n+]([Pd-2]([Cl])([Cl])[n+]2[nH]c(C)c(CSC3CCCCC3)c2C)c(C)c1CSC1CCCCC1  IC50 (Jurkat; cytotoxicity, 7-AAD flow cytometry; 24 h): 0.11 ± 0.01 µM
COc1cc(-c2ccc(O)cc2)cc(O)c1O  viability (3T3-L1; MTT; concentration not given, 72 h, with: insulin 30 nM): 96.6%
C[C@H](NC(=O)[C@H](CCCNC(=N)N)N(C)C(=O)[C@@H]1CCCN1C(=O)[C@H](CCCNC(=N)N)NC(=O)CNC(=O)c1ccc2c(c1)C1(OC2=O)c2ccc(O)cc2Oc2cc(O)ccc21)C(=O)N[C@@H](Cc1ccccc1)C(=O)N[C@H](C(=O)N[C@@H](Cc1ccccc1)C(=O)N(C)[C@@H](C)C(N)=O)[C@@H](C)O  intact parent peptide (LNCaP; single-cell CE-LIF; 5 min, microinjection; reference: all species): 15 ± 5%
COC(=O)c1ccccc1-c1c2ccc(=O)cc-2oc2c1ccc1cccc(OC)c12  IC50 (CAPAN-1; cell growth or viability, resazurin; 24 h): 30.1 µM
CC(=O)OC[C@H]1O[C@@H](Sc2sc(C(=O)c3ccc(Cl)cc3)c(N)c2-c2nc3ccccc3s2)[C@H](OC(C)=O)[C@@H](OC(C)=O)[C@@H]1OC(C)=O  non-toxic concentration (FRhK-4; 72 h): 80 µg/mL
Cc1ccc(C(C)C)cc1.[Cl-].[Cl][Ru+].[Ru+].c1ccc(-c2cn(CCCCOc3ccccc3-c3nc4ccccc4s3)nn2)nc1  viable cells (MCF7; annexin V/PI flow cytometry; 8 µM, 24 h): 65.5%
O=C(Nc1cc(F)c(F)c(F)c1)c1ccc(F)c(S(=O)(=O)N2CCC(NC(=O)C3CCC4(CC3)CCN(C(=O)CC35CC6CC(CC(C6)C3)C5)CC4)CC2)c1  maximum non-toxic concentration (HepAD38; cytopathic effect; human hepatoma cells): 15 µmol/L
Cc1ccc(S(=O)(=O)Nn2c3c(cc(-c4nc5ccccc5s4)c2=O)CCCC3)cc1  maximum non-toxic concentration (FRhK-4; trypan blue; 72 h): 130 µg/mL
CC(=O)O[C@H]1CC[C@]2(C)[C@H]3CC=C4[C@@H]5CC(C)(C)CC[C@]5(CO)CC[C@@]4(C)[C@]3(C)CC[C@H]2C1(C)C  IC50 (HEK293-A; cell growth or viability, SRB): 97.2 µM
CC(C)=CCc1cc([C@@H]2CC(=O)c3ccc(O)c(CC=C(C)C)c3O2)c(O)c(CC=C(C)C)c1O  viability (3T3-L1; MTT; concentration not given): 26.9 ± 0.9%
O=C(CC1CCN(C(=O)CC23CC4CC(CC(C4)C2)C3)CC1)NC1CCN(S(=O)(=O)c2cc(C(=O)Nc3cc(F)c(F)c(F)c3)ccc2F)CC1  maximum non-toxic concentration (HepAD38; cytopathic effect; human hepatoma cells): 2 µmol/L
Cc1cc(C)cc(OCC(N)c2ccccc2)c1 (stereo not drawn)  beating cessation concentration (normal iPSC cardiomyocytes; kinetic imaging cytometry; 5 min, pH 7.4): 66 µM
CC1(C)CC[C@]2(CO)CC[C@]3(C)C(=CC[C@@H]4[C@@]5(C)CCCNC(C)(C)[C@@H]5CC[C@]43C)[C@@H]2C1  CC50 (primary HFF; cell viability, CellTiter-Glo; HCMV AD169 assay setting): 3.49 µM
C=CC1=C(C)C2=NC1=Cc1c(C)c(CCC(=O)O)c3[n]1[Sn][n]1c(c(C)c(C=C)c1=C2)=CC1=NC(=C3)C(CCC(=O)O)=C1C  viability reduction (Huh5.15 replicon cells; MTT; 10 or 20 µM, 48 h): 12 to 19%
CC(=O)OC[C@H]1O[C@@H](Sc2sc(C(=O)c3ccc(C)cc3)c(N)c2-c2nc3ccccc3s2)[C@H](OC(C)=O)[C@@H](OC(C)=O)[C@H]1OC(C)=O  non-toxic concentration (FRhK-4; 72 h): 100 µg/mL
COc1ccc(/C=C/C(=O)c2ccc3c(c2)OCO3)cc1OC  GI50 (HEK293 empty vector pcDNA3.1; cell growth, MTT; 72 h, 10% FBS): 12.9 µM
CC(=O)O[C@@H]1[C@@H](OC(C)=O)[C@H](Sc2sc(C(=O)c3ccc(Br)cc3)c(N)c2-c2nc3ccccc3s2)OC[C@H]1OC(C)=O  maximum non-toxic concentration (BGM; cytotoxicity; 72 h): 100 µg/mL
CCCCCCCCCCCC(=O)NCCC(=O)N[C@H](CCCNC(=N)N)C(=O)N[C@H](CCCNC(=N)N)C(=O)N[C@H](CCCNC(=N)N)C(=O)N[C@H](CCCNC(=N)N)C(=O)N[C@H](CCCNC(=N)N)C(=O)N[C@H](CCCNC(=N)N)C(=O)N[C@H](CCCNC(=N)N)C(=O)N[C@H](CCCNC(=N)N)C(=O)N[C@H](CCCNC(=N)N)C(=O)N[C@@H](CCCCNC(=S)Nc1ccc2c(c1)C(=O)OC21c2ccc(O)cc2Oc2cc(O)ccc21)C(N)=O  retained fluorescence (Jurkat; flow cytometry; 10 µM, 6 h, loaded 10 min at 37 °C, then washed; reference: 0 h, higher = more retained): ~50%
CC(=O)OC[C@H]1O[C@@H](Sc2sc(C(=O)c3ccc(Br)cc3)c(N)c2-c2nc3ccccc3s2)[C@H](OC(C)=O)[C@@H](OC(C)=O)[C@@H]1OC(C)=O  maximum non-toxic concentration (BGM; cytotoxicity; 72 h): 100 µg/mL
COc1ccc(OC)c(/C=C/C(=O)c2ccc3c(c2)OCO3)c1  GI50 (HEK293 empty vector pcDNA3.1; cell growth, MTT; 72 h, 10% FBS): 8.1 ± 1.3 µM
Nc1c(C(=O)c2ccc(Br)cc2)sc(S)c1-c1nc2ccccc2s1  non-toxic concentration (FRhK-4; 72 h): 100 µg/mL
CC(=O)N[C@H](C(=O)N[C@H](C(=O)N[C@@H](CCCNC(=N)N)C(=O)N1Cc2ccccc2C[C@H]1C(=O)N[C@@H](Cc1ccccc1)C(N)=O)C1CCCCC1)C(C)C  cytokine level (human PBMC; Bio-Plex multiplex, item: IL-4; 500 µg/mL, 24 h): 1.4 ± 0.2 pg/mL

A few entries again:
COC(=O)c1ccccc1-c1c2ccc(=O)cc-2oc2c1ccc1cccc(OC)c12  IC50 (CAPAN-1; cell growth or viability, resazurin; 24 h): 30.1 µM
CC(=O)OC[C@H]1O[C@@H](Sc2sc(C(=O)c3ccc(Cl)cc3)c(N)c2-c2nc3ccccc3s2)[C@H](OC(C)=O)[C@@H](OC(C)=O)[C@@H]1OC(C)=O  non-toxic concentration (FRhK-4; 72 h): 80 µg/mL
Cc1ccc(C(C)C)cc1.[Cl-].[Cl][Ru+].[Ru+].c1ccc(-c2cn(CCCCOc3ccccc3-c3nc4ccccc4s3)nn2)nc1  viable cells (MCF7; annexin V/PI flow cytometry; 8 µM, 24 h): 65.5%
O=C(Nc1cc(F)c(F)c(F)c1)c1ccc(F)c(S(=O)(=O)N2CCC(NC(=O)C3CCC4(CC3)CCN(C(=O)CC35CC6CC(CC(C6)C3)C5)CC4)CC2)c1  maximum non-toxic concentration (HepAD38; cytopathic effect; human hepatoma cells): 15 µmol/L
